Results gathered from unrelated publications.
Numbered parts are unrelated; each lists some results of a single study. “And” joins repeats or separate records; there may be more than shown. Substitutions count along the parent as printed.
Chain of UniProt P10721 (whole entry, unmodified, looked up): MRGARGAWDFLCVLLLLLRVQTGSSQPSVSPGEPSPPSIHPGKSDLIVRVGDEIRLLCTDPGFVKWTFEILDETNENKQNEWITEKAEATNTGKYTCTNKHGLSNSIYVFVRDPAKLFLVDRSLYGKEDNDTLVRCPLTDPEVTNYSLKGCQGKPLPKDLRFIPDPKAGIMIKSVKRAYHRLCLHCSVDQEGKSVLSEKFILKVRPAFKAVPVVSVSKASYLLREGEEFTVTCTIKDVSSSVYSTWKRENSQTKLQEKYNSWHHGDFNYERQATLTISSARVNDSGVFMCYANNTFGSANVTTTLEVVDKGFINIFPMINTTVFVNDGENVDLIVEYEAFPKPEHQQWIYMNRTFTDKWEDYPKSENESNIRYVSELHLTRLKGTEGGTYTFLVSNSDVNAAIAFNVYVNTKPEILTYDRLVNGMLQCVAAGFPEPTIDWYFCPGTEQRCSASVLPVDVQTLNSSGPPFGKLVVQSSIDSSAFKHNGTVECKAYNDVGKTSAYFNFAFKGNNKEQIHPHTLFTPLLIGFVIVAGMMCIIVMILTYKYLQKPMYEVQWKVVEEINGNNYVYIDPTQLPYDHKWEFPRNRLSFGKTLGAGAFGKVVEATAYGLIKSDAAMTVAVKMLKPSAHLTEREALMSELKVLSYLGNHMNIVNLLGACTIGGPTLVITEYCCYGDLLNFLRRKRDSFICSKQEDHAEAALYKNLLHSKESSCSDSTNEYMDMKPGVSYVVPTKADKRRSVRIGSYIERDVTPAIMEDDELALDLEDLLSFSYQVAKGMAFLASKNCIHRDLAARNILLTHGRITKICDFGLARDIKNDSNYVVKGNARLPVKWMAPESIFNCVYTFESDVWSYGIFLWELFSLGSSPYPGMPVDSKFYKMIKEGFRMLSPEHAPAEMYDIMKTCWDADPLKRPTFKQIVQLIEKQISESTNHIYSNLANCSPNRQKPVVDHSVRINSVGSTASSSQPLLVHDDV
Chain of UniProt Q6ZWH5 (whole entry, looked up): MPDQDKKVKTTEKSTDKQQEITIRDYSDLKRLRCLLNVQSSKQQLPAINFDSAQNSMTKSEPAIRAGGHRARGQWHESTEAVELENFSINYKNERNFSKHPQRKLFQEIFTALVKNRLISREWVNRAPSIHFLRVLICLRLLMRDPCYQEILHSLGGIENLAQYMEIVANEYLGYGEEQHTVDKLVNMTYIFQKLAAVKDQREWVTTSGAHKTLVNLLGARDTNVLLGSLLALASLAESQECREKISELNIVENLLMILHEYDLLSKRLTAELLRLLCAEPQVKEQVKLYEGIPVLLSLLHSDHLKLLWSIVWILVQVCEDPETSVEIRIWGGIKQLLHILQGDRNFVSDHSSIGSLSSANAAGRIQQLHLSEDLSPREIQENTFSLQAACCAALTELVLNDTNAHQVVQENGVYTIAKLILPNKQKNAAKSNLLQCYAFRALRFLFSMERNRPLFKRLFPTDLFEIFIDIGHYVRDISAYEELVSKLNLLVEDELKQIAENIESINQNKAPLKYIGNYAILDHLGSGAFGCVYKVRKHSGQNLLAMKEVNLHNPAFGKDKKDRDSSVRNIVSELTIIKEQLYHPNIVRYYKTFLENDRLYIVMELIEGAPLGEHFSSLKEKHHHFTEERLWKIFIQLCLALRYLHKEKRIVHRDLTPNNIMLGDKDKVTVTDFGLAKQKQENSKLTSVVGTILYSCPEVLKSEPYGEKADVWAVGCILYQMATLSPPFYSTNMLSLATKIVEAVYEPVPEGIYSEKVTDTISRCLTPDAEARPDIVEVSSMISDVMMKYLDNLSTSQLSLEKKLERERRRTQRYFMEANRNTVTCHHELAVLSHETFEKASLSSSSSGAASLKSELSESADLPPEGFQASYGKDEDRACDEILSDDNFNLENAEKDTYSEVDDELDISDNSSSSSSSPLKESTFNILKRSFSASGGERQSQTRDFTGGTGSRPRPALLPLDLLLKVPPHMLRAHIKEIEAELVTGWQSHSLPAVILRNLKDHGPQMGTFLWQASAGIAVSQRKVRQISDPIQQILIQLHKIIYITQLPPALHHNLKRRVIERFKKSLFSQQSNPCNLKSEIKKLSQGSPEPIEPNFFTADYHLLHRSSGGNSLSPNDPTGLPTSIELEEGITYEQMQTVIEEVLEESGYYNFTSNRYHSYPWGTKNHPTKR
Chain of UniProt O43353 (whole entry, looked up): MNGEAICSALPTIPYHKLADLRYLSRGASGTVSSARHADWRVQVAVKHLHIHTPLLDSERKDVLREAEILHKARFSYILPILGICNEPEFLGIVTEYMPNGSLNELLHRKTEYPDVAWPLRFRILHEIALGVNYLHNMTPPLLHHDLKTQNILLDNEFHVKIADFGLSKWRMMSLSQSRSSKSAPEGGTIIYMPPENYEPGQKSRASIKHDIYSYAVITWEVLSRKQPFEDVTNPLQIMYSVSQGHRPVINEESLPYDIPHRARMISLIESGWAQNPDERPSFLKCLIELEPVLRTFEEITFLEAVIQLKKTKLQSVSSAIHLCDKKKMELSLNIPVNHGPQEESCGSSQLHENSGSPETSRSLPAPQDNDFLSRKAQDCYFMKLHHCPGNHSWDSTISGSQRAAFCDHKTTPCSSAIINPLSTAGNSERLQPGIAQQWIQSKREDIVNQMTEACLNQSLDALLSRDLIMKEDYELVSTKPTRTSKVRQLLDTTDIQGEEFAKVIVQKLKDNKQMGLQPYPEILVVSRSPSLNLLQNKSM
Chain of UniProt O14757 (whole entry, looked up): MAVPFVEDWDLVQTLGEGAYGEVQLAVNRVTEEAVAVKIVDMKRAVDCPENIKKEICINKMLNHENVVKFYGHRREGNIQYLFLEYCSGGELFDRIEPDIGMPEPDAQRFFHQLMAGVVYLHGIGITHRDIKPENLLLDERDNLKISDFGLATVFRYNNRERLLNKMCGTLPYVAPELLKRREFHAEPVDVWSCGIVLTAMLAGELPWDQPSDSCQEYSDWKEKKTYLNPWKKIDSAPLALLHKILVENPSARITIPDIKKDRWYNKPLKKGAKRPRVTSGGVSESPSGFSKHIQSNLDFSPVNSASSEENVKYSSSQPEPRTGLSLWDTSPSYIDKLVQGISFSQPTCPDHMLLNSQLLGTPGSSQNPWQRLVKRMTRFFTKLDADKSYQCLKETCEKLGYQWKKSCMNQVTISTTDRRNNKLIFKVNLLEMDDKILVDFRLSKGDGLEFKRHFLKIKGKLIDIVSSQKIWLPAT
Chain of UniProt P07333 (whole entry, looked up): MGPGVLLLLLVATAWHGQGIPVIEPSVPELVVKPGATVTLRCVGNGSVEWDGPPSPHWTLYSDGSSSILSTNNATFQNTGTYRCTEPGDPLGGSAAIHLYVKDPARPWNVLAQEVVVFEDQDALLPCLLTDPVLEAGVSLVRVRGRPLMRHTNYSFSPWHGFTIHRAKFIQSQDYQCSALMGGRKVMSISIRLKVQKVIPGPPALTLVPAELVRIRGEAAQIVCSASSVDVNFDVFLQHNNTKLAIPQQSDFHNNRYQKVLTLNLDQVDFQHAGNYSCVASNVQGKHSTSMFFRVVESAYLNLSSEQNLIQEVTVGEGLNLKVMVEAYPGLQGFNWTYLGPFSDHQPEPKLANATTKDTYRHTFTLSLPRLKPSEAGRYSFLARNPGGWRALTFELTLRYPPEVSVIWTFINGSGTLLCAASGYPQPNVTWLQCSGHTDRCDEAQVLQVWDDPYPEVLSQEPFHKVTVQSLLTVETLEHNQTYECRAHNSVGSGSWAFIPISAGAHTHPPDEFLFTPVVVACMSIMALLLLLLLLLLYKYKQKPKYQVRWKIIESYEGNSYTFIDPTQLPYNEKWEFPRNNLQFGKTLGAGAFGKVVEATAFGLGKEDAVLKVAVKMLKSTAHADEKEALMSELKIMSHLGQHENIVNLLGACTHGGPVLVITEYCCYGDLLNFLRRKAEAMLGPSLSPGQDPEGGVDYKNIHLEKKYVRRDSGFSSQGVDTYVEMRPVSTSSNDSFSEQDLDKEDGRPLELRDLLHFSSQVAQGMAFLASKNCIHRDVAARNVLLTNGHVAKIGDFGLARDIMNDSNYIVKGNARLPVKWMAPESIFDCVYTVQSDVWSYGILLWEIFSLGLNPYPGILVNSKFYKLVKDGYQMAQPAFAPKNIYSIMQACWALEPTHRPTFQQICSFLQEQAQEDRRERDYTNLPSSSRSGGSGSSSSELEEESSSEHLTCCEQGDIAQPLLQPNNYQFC
Chain of UniProt Q16288 (whole entry, looked up): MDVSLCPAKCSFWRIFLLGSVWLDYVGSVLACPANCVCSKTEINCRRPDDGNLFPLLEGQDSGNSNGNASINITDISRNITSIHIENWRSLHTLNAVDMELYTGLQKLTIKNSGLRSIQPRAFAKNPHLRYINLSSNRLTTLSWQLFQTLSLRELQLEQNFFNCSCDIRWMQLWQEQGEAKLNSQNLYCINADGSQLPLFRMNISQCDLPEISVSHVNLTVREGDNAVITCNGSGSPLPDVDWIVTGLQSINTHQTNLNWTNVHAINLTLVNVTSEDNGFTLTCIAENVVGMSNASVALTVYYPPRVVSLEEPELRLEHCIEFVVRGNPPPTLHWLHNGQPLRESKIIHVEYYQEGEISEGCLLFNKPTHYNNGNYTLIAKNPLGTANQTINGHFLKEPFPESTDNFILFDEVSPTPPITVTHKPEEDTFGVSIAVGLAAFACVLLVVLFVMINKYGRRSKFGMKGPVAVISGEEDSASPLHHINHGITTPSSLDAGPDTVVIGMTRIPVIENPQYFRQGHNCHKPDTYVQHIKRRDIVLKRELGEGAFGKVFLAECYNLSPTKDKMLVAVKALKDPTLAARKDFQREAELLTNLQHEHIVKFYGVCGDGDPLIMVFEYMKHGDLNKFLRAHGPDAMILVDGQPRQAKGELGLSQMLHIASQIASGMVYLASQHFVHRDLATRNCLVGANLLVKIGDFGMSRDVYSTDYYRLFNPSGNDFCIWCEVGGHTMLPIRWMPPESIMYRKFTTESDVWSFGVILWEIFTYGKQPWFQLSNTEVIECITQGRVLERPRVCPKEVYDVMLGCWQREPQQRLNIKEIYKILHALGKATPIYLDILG

Block 1 — effect on: peptide-MHC binding; molecule type: peptide; concentration: concentration not given
Target: HLA class I histocompatibility antigen, C alpha chain, allele C*04:01 (Homo sapiens, UniProt P10321)
Molecule | binding
MRYFIGQPL | inactive
FVDVGVSAL | inactive
MPMSMPIPM | inactive
YPFHIFYPV | inactive
MQIRGFVYF | inactive
LEMNDAPTA | inactive
RMMGVKYLM | inactive
YSLEYFQFVKK | inactive

Block 2 — target: CCNA1, cyclin fold, Cln2 fusion (human); technique: yeast growth competition, sequencing; matrix: yeast; setting: strong parent motif; relative to: not given; reading: higher = stronger binding; parent: viral docking peptide; YKVKRRLVFGADD
Variant | normalised enrichment score
A11W | 0.857
L7D | 0.246
K2Q | 1.26
A11R | 1.35
A11Y | 1.28
F9D | 0.613
A11H | 1.29
K2N | 1.34

Block 3 — technique: competition with immobilised ligand; concentration: 1 µM
Structure (SMILES): Cn1cncc1[C@](O)(COc1ccc(C#N)cc1-c1ccc(OC(F)(F)F)cc1)c1ccc(C#N)cc1
target | test | remaining binding [%]
NEK10 (Homo sapiens, UniProt Q6ZWH5) | cell-free assay | 83
FLT4 (Homo sapiens, UniProt P35916) | cell-free assay | 77
PIK3CB (Homo sapiens, UniProt P42338) | cell-free assay | 96
LATS2 (Homo sapiens, UniProt Q9NRM7) | cell-free assay | 100
PRKAA1 (Homo sapiens, UniProt Q13131) | cell-free assay | 99
TLK2 (Homo sapiens, UniProt Q86UE8) | cell-free assay | 100
PTK2B (Homo sapiens, UniProt Q14289) | cell-free assay | 62
MAP4K1 (Homo sapiens, UniProt Q92918) | cell-free assay | 100
ACVRL1 (Homo sapiens, UniProt P37023) | binding | 100
Tyrosine-protein kinase ABL1, phosphorylated (ABL1, Homo sapiens, UniProt P00519, M351T) | cell-free assay | 100
KIT (Homo sapiens, UniProt P10721, V559D/V654A) | cell-free assay | 100
MAP2K2 (Homo sapiens, UniProt P36507) | cell-free assay | 94
RIPK2 (Homo sapiens, UniProt O43353) | cell-free assay | 100
PLK2 (Homo sapiens, UniProt Q9NYY3) | cell-free assay | 94
DCLK3 (Homo sapiens, UniProt Q9C098) | cell-free assay | 99
KIT (Homo sapiens, UniProt P10721, T670I/V559D) | cell-free assay | 84
CHEK1 (Homo sapiens, UniProt O14757) | cell-free assay | 97
NTRK3 (Homo sapiens, UniProt Q16288) | cell-free assay | 80
CSF1R (Homo sapiens, UniProt P07333) | cell-free assay | 94

Single results of other studies
Compound | tested on | test | conditions | how to read | quantity | result
CC[C@@H](C)c1nc2cc(Nc3ccnc4ccc(S(=O)(=O)C(C)C)cc34)ccc2s1.Cl | L929 RIPK3-/- reexpressing RIPK3 K51A | CCK-8 | 3.125 µM, added: zVAD | – | survival | 105% and 99.2% and 102% and 104%
c1ccc2c3c([nH]c2c1)CNCC3 | Sarcocystis neurona | parasite growth | 10 µM, secondary screen | – | inhibition | -55.3%
O=C1NC(=O)c2c1c1c3ccccc3n3c1c1c2c2ccccc2n1[C@H]1CC[C@@H]3O1 | ERBB2 (Homo sapiens, UniProt P04626) | enzyme activity, inhibitor | 0.5 µM | relative to: control | remaining activity | 98.4%
